# Measurements collected from several papers.
# Lines come from different studies, so protocols differ. Several values in a cell are separate wells, animals, samples, runs or records. Numbers after ± are the reported error.
Molecule,test,system,setting,how to read,quantity,value
O=C(NC1CCNCC1)c1n[nH]cc1NC(=O)c1c(Cl)cccc1Cl,,"patients, skin biopsy","dose not given, 24 h after infusion end",relative to: pre-dose,Ki67 change,no effect
COc1c(C)c(C)c2c(c1C)CCC(C)(C(=O)NN=C1C(=O)Nc3ccc(Br)cc31)O2 (centres unmarked),seizure protection,male CF-1 mice,"intraperitoneal, 4 h, with: pentylenetetrazole 60 mg/kg subcutaneous",,minimal effective dose,100 mg/kg
CCCOc1ccc(/C=C(\C(=O)c2cc(C)[nH]c(=O)c2C(=O)N2CCCCC2)c2ccc(OCCC)cc2)cc1,"cell proliferation, MTT","35404 melanoma brain metastasis, human patient-derived","72 h, tested up to 10 µM",,IC50,> 10 µM
FSRALRTK,ELISA or Luminex,"peptide, mouse peritoneal macrophages, C57BL/6 mouse","optimal dose within 0.1 pM to 100 nM, 1 h pretreatment, 15 h stimulation, with: LPS 100 ng/mL + IFN-γ 20 ng/mL",relative to: LPS/IFN-γ stimulated control,inhibition of RANTES release,0%
CCN(O)N=Nc1ccc(S(=O)(=O)Nc2onc(C)c2C)cc1,paw oedema,"rat, carrageenan oedema","oral, 100 mg/kg, 2 h after carrageenan",relative to: vehicle,inhibition,22.3%
O=C1N=C(NN=C2C(=O)Nc3ccccc32)SC1=C1c2ccccc2-c2nc3cc(F)ccc3nc21,,mice with STZ-induced diabetes,"oral, 25 mg/kg, 216 h, day 9",,blood glucose,295 ± 80.3 mg/dL
Cc1noc(NS(=O)(=O)c2ccc(N=NN(C)O)cc2)c1C,paw oedema,"rat, carrageenan oedema","oral, 100 mg/kg, 4 h after carrageenan",relative to: vehicle,inhibition,77.4%
CCOC(=O)C=C1SC(NN=C2c3ccccc3-c3nc4cc(F)ccc4nc32)=NC1=O,,mice with STZ-induced diabetes,"oral, 25 mg/kg, 144 h, day 6",,blood glucose,351 ± 80 mg/dL
COc1cc(CNC(=O)CCCC/C=C/C(C)C)ccc1O,,"male Sprague-Dawley rat, LAD occlusion-reperfusion","iv, 0.3 mg/kg, 5 min before reperfusion, 30 min occlusion, 2 h reperfusion",relative to: area at risk,infarct size,45 ± 1%
CC(C)C[C@H](NC(=O)[C@H](CO)NC(=O)[C@H](CCCNC(=N)N)NC(=O)[C@H](CC(=O)O)NC(=O)[C@H](CCC(=O)O)NC(=O)[C@H](C)NC(=O)[C@@H]1CCCN1C(=O)[C@H](C)NC(=O)[C@H](CCC(=O)O)NC(=O)[C@@H]1CCCN1C(=O)[C@@H]1CCCN1)C(N)=O,HPLC-EC,"rat F344, normal, substantia nigra","intranasal, 300 µg 5 days per week, 3 weeks",,HVA level,81 ± 7 ng/g
Cc1c(C)c2c(c(C)c1OCc1ccccc1)CCC(C)(C(=O)NN=C1C(=O)N(C)c3ccccc31)O2 (centres unmarked),seizure protection,male CF-1 mice,"intraperitoneal, 0.5 h, with: pentylenetetrazole 60 mg/kg subcutaneous",,minimal effective dose,100 mg/kg
COc1ccc2nc([S@@+]([O-])Cc3ncc(C)c(OC)c3C)[nH]c2c1,,human poor metabolizer,"40 mg/day, day 6, 5 days dosing",,intragastric pH,3 ± 2.82
insulin,PET imaging,"CD IGS rat, ipsilateral lateral gastrocnemius","intra-arterial (left femoral), 0.34-0.346 IU/kg, 20 to 60 min",,18F-FDG SUV slope,0.0066 ± 0.0017
CN(C)C(=N)N=C(N)N,,"male Wistar rat, MCAO","oral, 200 mg/kg once daily, 7 days before, read 48 h after MCAO, with: liraglutide 1 mg/kg s.c. + empagliflozin 2 mg/kg",relative to: brain volume,infarct volume,8.67%
CC[C@H](C)[C@@H]1NC(=O)[C@H](CCCNC(=N)N)NC(=O)[C@H](CC(=O)O)NC(=O)[C@H](CC(C)C)NC(=O)[C@H](CCCCN)NC(=O)[C@H](CC(C)C)NC(=O)CNC(=O)[C@H](Cc2ccccc2)NC(=O)[C@@H](NC(=O)CNC(=O)[C@H](CCCCN)NC(=O)[C@H](CO)NC(=O)[C@H](CC(C)C)NC(=O)CNC(=O)[C@H](CCCCN)NC(=O)[C@H](CCCCN)NC(=O)[C@H](CC(N)=O)NC(=O)[C@H](C)NC(=O)CNC(=O)[C@H](CCCCN)NC(=O)[C@H](Cc2ccc(O)cc2)NC(=O)[C@H](CCCCN)NC(=O)[C@H](CCCNC(=N)N)NC(=O)[C@H](C)NC(=O)[C@H](CC(N)=O)NC(=O)[C@@H]2CCCN2C(=O)[C@H](Cc2c[nH]cn2)NC(=O)[C@H](CCC(=O)O)NC(=O)[C@H](CCC(N)=O)NC(=O)CNC(=O)[C@@H]2CCCN2)CSSC[C@@H](C(=O)O)NC(=O)CNC(=O)[C@H](CC(C)C)NC(=O)CNC(=O)[C@H](CO)NC(=O)[C@H](CCSC)NC(=O)[C@H](CO)NC(=O)CNC1=O,annualized growth velocity change,human patients with achondroplasia,"day 183, sigmoid Emax vs AUC(0-t)",relative to: baseline,Emax,2.41 cm/year
Cc1c(C)c2c(c(C)c1OCc1ccccc1)CCC(C)(C(=O)NN=C1C(=O)N(C)c3ccc(Cl)cc31)O2 (centres unmarked),seizure protection,male CF-1 mice,"intraperitoneal, 0.5 h, with: maximal electroshock",,minimal effective dose,100 mg/kg
CS(=O)(=O)N1CCc2c(-c3cnc(N)nc3)nc(N3CCOCC3)nc21,,human,72 mg twice daily,,time on treatment,6 cycles
O=C1CSC(NN=C2c3ccccc3-c3nc4cc(F)ccc4nc32)=N1,,mice with STZ-induced diabetes,"oral, 25 mg/kg, 144 h, day 6",,blood glucose,543 ± 17.6 mg/dL
COc1c(C)c(C)c2c(c1C)CCC(C)(C(=O)NN=C1C(=O)Nc3ccccc31)O2 (centres unmarked),seizure protection,male CF-1 mice,"intraperitoneal, 4 h, with: pentylenetetrazole 60 mg/kg subcutaneous",,minimal effective dose,100 mg/kg
Cc1ccc2c(ccc3cc4ccccc4cc32)c1,adrenal haemorrhage prevention,rat,"oral, with: 7,12-DMBA 5 mg i.v.",,minimal protective dose,0.5 mg
TLQPPASSRRRHAHHALPPAR,,"peptide, rat stomach fundus strips",3 µM,relative to: TLQP-21,contractile activity,88 ± 9%
NCCCC[C@@H]1NC(=O)[C@@H](Cc2c[nH]c3ccccc23)NC(=O)[C@H](c2ccccc2)NC(=O)[C@@H]2C[C@@H](OC(=O)NCCN)CN2C(=O)[C@H](Cc2ccccc2)NC(=O)[C@H](Cc2ccc(OCc3ccccc3)cc2)NC1=O,GHRH-stimulated GH secretion,healthy human volunteers,"subcutaneous, 2.5 µg, with: GHRH 1 µg/kg",relative to: pre-dose baseline,GH AUC(0-2h) change,23.8%
Cc1ccc(S(=O)(=O)NC(=O)NN2CC3CCCC3C2)cc1 (centres unmarked),,mice with STZ-induced diabetes,"oral, 25 mg/kg, 216 h, day 9",,blood glucose,165 ± 4.1 mg/dL
COc1ccc2c(c1)CC[C@H](CN(C)CC(=O)O)[C@@H]2c1ccccc1,,"rat, prefrontal cortex microdialysate","oral gavage, 5 mg/kg/day, 2 weeks, PCP-treated rats",,basal dopamine level,1.71 ± 1.31 pg/10 µL
CS/C(S)=N/CCCC[S+](C)[O-] (racemic),"RT-PCR, item: Chst1","rat, liver","oral gavage, 200 mg/kg, 96 h, dosed for four days",relative to: vehicle,mRNA fold change,0.546
CCN(O)N=Nc1ccc(S(=O)(=O)Nc2nccs2)cc1,paw oedema,"rat, carrageenan oedema","oral, 100 mg/kg, 2 h after carrageenan",relative to: vehicle,inhibition,30.3%
insulin aspart,euglycaemic glucose clamp,Japanese type 1 diabetes patients,"subcutaneous, 0.2 U/kg",,time to early 50% GIRmax,47.4 min
Cc1c(C)c2c(c(C)c1O)CCC(C)(C(=O)NN=C1C(=O)N(C)c3cc(Cl)ccc31)O2 (centres unmarked),seizure protection,male CF-1 mice,"intraperitoneal, 4 h, with: pentylenetetrazole 60 mg/kg subcutaneous",,minimal effective dose,100 mg/kg
CCCN(O)N=Nc1ccc(S(=O)(=O)Nc2cc(C)on2)cc1,paw oedema,"rat, carrageenan oedema","oral, 100 mg/kg, 4 h after carrageenan",relative to: vehicle,inhibition,81.7%
Cc1ccc(-c2nn(-c3ccccc3)cc2C=NNC2=NC(=O)C(=C3c4ccccc4-c4nc5cc(F)ccc5nc43)S2)cc1,,mice with STZ-induced diabetes,"oral, 25 mg/kg, 216 h, day 9",,blood glucose,332 ± 79.1 mg/dL
C[C@H]1C[C@H]2CSC(N)=N[C@@]2(c2nc(NC(=O)c3ccc(OC(F)F)cn3)cs2)CO1,item: CSF Aβx-42,healthy adults,"125 mg once daily, 14 days, day 15",relative to: placebo-adjusted baseline,change from baseline,-79.6%
RALRTK,ELISA or Luminex,"peptide, mouse peritoneal macrophages, C57BL/6 mouse","optimal dose within 0.1 pM to 100 nM, 1 h pretreatment, 15 h stimulation, with: LPS 100 ng/mL + IFN-γ 20 ng/mL",relative to: LPS/IFN-γ stimulated control,inhibition of TNF-α release,0%
COc1ccc2c(c1)c(CC(=O)O)c(C)n2C(=O)c1ccc(Cl)cc1,"multiplex bead immunoassay, item: RANTES","CD-1 mice, serum","ip, 20 mg/kg, three-injection regimen, with: LPS 3 mg/kg",,cytokine level,2.9 ± 1.8 pg/mL
O=c1c(O)c(-c2ccc(O)c(O)c2)oc2cc(O)ccc12,,"Ins2 Akita diabetic mouse, plantar foot skin","oral, diet, 0.05% in diet",,epidermal nerve fiber density,no effect
CCc1cc(-c2noc(-c3cc(OC)nc(C4CCCC4)c3)n2)cc(C)c1OC[C@@H](O)CO,lymphocyte count reduction,Wistar rats,"oral, 0.1 to 10 mg/kg",,minimal effective plasma concentration,60 ng/mL and ~60 ng/mL
COc1c(C)c(C)c2c(c1C)CCC(C)(C(=O)NN=C1C(=O)Nc3ccc(F)cc31)O2 (centres unmarked),seizure protection,male CF-1 mice,"intraperitoneal, 4 h, with: maximal electroshock",,minimal effective dose,100 mg/kg
C[C@]12CCCN1CC1=NNC(=O)c3cc(F)cc4[nH]c2c1c34,"PARylation, item: PAR","MDA-MB-436 xenograft, mouse, tumour","5.45 mg/kg single dose, first 12 h",,inhibition,≥ 80%
COc1cc(Nc2ncc3c(n2)-c2ccc(Cl)cc2C(c2c(F)cccc2OC)=NC3)ccc1C(=O)O,RECIST,human,"50 mg twice daily, 12 cycles",,tumour reduction,< 50%
CCOc1ccc(Cc2cc([C@]34OC[C@](CO)(O3)[C@@H](O)[C@H](O)[C@H]4O)ccc2Cl)cc1,,"human, type 2 diabetes, mild renal impairment","dose not given, 24 h",relative to: normal renal function median,urinary glucose excretion,~53%
Cc1c2ccccc2cc2ccc3ccccc3c12,adrenal haemorrhage prevention,rat,"oral, with: 7,12-DMBA 5 mg i.v.",,minimal protective dose,1 mg
Cc1c(C)c2c(c(C)c1O)CCC(C)(C(=O)NN=C1C(=O)Nc3ccc(F)cc31)O2 (centres unmarked),seizure protection,male CF-1 mice,"intraperitoneal, 0.5 h, with: pentylenetetrazole 60 mg/kg subcutaneous",,minimal effective dose,300 mg/kg
GEBGABGNKGEQGPKGEBGP,,"peptide, DBA/1 mouse, collagen-induced arthritis","dose not given, treated after onset",relative to: ovalbumin,arthritis severity,decreased
Cc1c(C)c2c(c(C)c1O)CCC(C)(C(=O)NN=C1C(=O)Nc3ccc(Br)cc31)O2 (centres unmarked),seizure protection,male CF-1 mice,"intraperitoneal, 4 h, with: maximal electroshock",,minimal effective dose,> 300 mg/kg
SIIVFEKL,"flow cytometry, item: CD44hi CD8+ T cells","peptide, OT-I CD8+ T cells, mouse","dose not given, primed 5 days, restimulated 100 ng/mL OVA257, with: no TGF-β1",,IL-2+ TNF-α+ cells,2.62%
Cc1cc2ccccc2c2cc3ccccc3cc12,adrenal haemorrhage prevention,rat,"oral, with: 7,12-DMBA 5 mg i.v.",,minimal protective dose,0.5 mg
Nc1nnc(-c2cccc(Cl)c2Cl)c(N)n1,,Scn1a+/- mice,"oral in chow, dose not given, spontaneous seizures, subchronic",relative to: untreated,GTCS progressing to tonic hindlimb extension,decreased
Cc1cc(Nc2ncc(Cl)c(Nc3ccccc3S(=O)(=O)C(C)C)n2)c(OC(C)C)cc1C1CCNCC1,immunohistochemistry,"human, metastatic tissue",concentration not given,relative to: archival tissue,pH3 and cleaved caspase-3,no effect

# Some of these lines once more:
Molecule,test,system,setting,how to read,quantity,value
Cc1ccc(S(=O)(=O)NC(=O)NN2CC3CCCC3C2)cc1 (centres unmarked),,mice with STZ-induced diabetes,"oral, 25 mg/kg, 216 h, day 9",,blood glucose,165 ± 4.1 mg/dL
COc1ccc2c(c1)CC[C@H](CN(C)CC(=O)O)[C@@H]2c1ccccc1,,"rat, prefrontal cortex microdialysate","oral gavage, 5 mg/kg/day, 2 weeks, PCP-treated rats",,basal dopamine level,1.71 ± 1.31 pg/10 µL
CS/C(S)=N/CCCC[S+](C)[O-] (racemic),"RT-PCR, item: Chst1","rat, liver","oral gavage, 200 mg/kg, 96 h, dosed for four days",relative to: vehicle,mRNA fold change,0.546
CCN(O)N=Nc1ccc(S(=O)(=O)Nc2nccs2)cc1,paw oedema,"rat, carrageenan oedema","oral, 100 mg/kg, 2 h after carrageenan",relative to: vehicle,inhibition,30.3%
insulin aspart,euglycaemic glucose clamp,Japanese type 1 diabetes patients,"subcutaneous, 0.2 U/kg",,time to early 50% GIRmax,47.4 min
